# Measured values pooled from the literature.
# A part holds a random share of what one study measured. Changes are numbered by the printed parent chain.

# Set 1
# Target: RNA binding protein fox-1 homolog 2, RRM domain, GST-SBP tag (RBFOX2, Homo sapiens, UniProt O43251-10, residues 100-194)
# Technique: RNA Bind-n-Seq
# Form: RNA
# Matrix: in vitro
# Concentration: 365 nM
# Setting: natural RNA segment, single round, ends assumed
# Relative to: no-protein control
# Reading: higher = stronger binding
# Shared flanks, not repeated: GGGAGUUCUACAGUCCGACGAUC … UGGAAUUCUCGGGUGCCAA
# Residues (chain): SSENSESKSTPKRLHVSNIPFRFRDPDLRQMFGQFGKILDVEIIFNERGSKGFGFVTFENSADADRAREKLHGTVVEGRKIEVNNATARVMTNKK
Strand,RBNS enrichment (R)
GCUUCGGCUGAUCCCAUAUUGGACCGGAUAGAGCUCAGCUCUUGCCUUUGUUGCUGCUAACACUGGAGGUGGGCGUUCCUAGCUGCAGUGUGCUGCUAUGCCUCUCUGCC,0.31
UUUAAAAUAAGUUAAAGGCAGUCCAGAGCUUUUCAGCCAAUUUGUCUCCUACUCUGUGUAAAUAUUUUUCCCUCCGGGCAGGGGAGCCAGGGUAGAGCAAAGGAGACAAA,0.598
AUUUAAGUUCCUGCUGCCUGGGUAGGCCCCACAAGGCCUGGUCUGGGAGUAUACGGAAACAAAAAUGAUCCUCAGUGCAAAAUGUCUUGUGUAUUUCUCUGUGAAUCCAU,0.387
GUCUGUGCCUCUGAGCAGACCGUGAGAACUCAGGGGACGAGUGGCUAAGAGCAUGGCCUCUCCCAGAACCCACCCAGGGUGGUGUGGUGGGGGCAACAGGGGCCAGACUC,0.603
GCAGUACUCUGCCAAUUUUAGAAGGUAAUUCCCAGAUCUGUUCUCAGCAAGAAAGUACCCUGUUGGAUAGUCCAGAUGAAGAAGUGGCUCACUAUAUAUCCCUGCAUAGA,0.352
ACGGAAUCAUUUUAAUGUGUUCCUCAGAACGUAUGUAUUGACUUCUACAAUAAAUGACUGGCUGGUGCUUUGGUGUGCUGUUCAUUGAGUGAAUGCUAGAAGCCACACUG,0.431
AACCCAUGUCUGACUUAGUGCUGCCUGUGUUGGUAAGAGUCAGCAAGUGCCCUUAGGAAGCCACACGGAGGGGAUGCUGGGAGUCCUGACAUAUGAAUCUAUUUAUUAUG,1.06
UCGAUUACUUGAGGUCAGGAGUUCACGACCAGCCUGGCCAACAUUGUGAAACCCCAUCUCUGCCAAAAAUACAAAAGUUAGCCGGGCGUAGUGGCACAUGCCUGUAAUCC,0.596

# Set 2
# Target: Transcriptional repressor CTCF (CTCF, Homo sapiens, UniProt P49711, residues 1-727, full length assumed)
# Technique: protein-binding microarray
# Form: double-stranded DNA, one strand shown
# Matrix: in vitro
# Concentration: not given
# Setting: k-mer, scored over probes, only values ≥0.25
# Reading: higher = stronger binding
# Target sequence (chain): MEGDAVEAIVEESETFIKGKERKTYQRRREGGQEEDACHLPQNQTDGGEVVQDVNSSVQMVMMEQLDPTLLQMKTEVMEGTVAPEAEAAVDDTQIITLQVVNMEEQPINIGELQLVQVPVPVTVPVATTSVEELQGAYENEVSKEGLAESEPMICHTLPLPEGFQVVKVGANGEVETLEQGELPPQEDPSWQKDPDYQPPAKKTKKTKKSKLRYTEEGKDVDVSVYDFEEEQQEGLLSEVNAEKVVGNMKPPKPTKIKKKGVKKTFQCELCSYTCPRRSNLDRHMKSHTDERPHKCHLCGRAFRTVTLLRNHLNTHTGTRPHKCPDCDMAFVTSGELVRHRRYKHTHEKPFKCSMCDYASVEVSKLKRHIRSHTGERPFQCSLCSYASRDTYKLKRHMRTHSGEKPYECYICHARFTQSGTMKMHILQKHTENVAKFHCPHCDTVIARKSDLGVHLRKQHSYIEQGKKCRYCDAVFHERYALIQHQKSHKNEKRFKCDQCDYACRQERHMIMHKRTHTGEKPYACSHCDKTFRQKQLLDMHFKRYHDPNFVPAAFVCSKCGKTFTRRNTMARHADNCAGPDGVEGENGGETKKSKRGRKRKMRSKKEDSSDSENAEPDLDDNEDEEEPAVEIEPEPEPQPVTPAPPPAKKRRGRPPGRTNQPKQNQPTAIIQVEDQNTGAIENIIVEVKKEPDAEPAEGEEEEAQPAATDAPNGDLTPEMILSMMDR
Strand,E-score
ATAACAAT,0.261
TATATGCA,0.313
CTGCGCGA,0.271
GTTTGGTA,0.318
ACGCGCGT,0.294
ATACACAT,0.34
GTCGCGAC,0.265
ATCTTGCA,0.263
GAAATAAA,0.271
ACGTTATG,0.273
AAAATAAT,0.288
CATGTGTA,0.268
GTGTTATA,0.333
GGGCGCAA,0.379
AATTATAG,0.277
AATTTATA,0.367

# Set 3
# Target: Interferon regulatory factor 3, full length, phosphomimetic (IRF3, Homo sapiens, UniProt Q14653, residues 1-427, S386D/S396D/S398D/S402D/T404D/S405D)
# Technique: protein-binding microarray
# Form: double-stranded DNA, one strand shown
# Matrix: in vitro
# Concentration: 2540 nM top
# Setting: 60-bp whole probe
# With: salmon DNA 0.4 mg/ml
# Relative to: random background probes
# Reading: higher = stronger binding
# Shared flanks, not repeated: GCCTAGCAC … GTCTTGATTCGCTTGACGCTGCTG
# Residues (chain): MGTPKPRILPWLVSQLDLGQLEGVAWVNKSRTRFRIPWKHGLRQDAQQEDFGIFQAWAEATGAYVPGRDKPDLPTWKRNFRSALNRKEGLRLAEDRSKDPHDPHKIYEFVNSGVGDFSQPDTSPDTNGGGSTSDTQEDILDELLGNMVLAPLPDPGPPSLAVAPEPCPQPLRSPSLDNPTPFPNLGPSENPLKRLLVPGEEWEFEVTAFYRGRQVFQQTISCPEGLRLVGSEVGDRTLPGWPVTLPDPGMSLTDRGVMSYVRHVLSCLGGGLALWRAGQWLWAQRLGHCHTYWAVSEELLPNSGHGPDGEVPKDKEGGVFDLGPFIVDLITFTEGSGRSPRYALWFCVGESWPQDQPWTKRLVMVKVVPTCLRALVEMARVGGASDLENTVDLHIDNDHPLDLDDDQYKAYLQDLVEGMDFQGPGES
Strand,fitted relative affinity
TTAGGTTCCCTTTTCCTGTAGTGCTAG,7.01 z-score
GAAGCTTCTTTTTTATTCTAGTGCTAG,1.05 z-score
GACGAGTTCAGTTCCGAGACGTGCTAG,0.696 z-score
TTAGATCTCAGTCTCGATAAGTGCTAG,0.594 z-score
ATATATTCATATATATATGAGTGCTAG,1.08 z-score
GACGGTTTCCTACTCCTGACGTGCTAG,6.62 z-score
TTAGAACTGAGTCTAGATTAGTGCTAG,-0.46 z-score
TCCCCTCTAGGTTCTCTGAAGGTGCTA,0.34 z-score
GACGATTTCAGTTTCGAGAGGTGCTAG,3.96 z-score
TTAGAACTGAGGACTGGATTAGTGCTA,-0.618 z-score
TTAGATTCCACTTTCGATTAGTGCTAG,4.22 z-score

# Set 4
# Target: RING finger protein unkempt homolog, zinc fingers 1-6, GST-SBP tag (UNK, Homo sapiens, UniProt Q9C0B0, residues 30-357)
# UniProt Q9C0B0, sequence (30-357, looked up): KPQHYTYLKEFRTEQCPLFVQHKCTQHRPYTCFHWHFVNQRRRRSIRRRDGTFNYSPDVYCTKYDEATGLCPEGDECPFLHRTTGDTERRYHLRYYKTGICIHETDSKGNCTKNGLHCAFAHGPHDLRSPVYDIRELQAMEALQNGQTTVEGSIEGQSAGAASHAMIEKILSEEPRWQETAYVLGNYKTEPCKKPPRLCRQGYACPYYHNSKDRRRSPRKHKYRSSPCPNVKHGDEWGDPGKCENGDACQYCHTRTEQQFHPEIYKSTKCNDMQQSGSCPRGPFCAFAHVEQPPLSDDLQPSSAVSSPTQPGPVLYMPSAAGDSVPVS
# Technique: RNA Bind-n-Seq
# Form: RNA
# Matrix: in vitro
# Concentration: not given
# Setting: RNA with constant flanks, ends assumed
# Relative to: input RNA pool
# Reading: higher = stronger binding
# Shared flanks, not repeated: GGGAGUUCUACAGUCCGACGAUC … CAACAGAGGAUUGAGCAUCA
Strand,bound/input enrichment [ratio]
GUAGAAUUCUGUCAUCCUGAAGACCAGCAGCUUCUAAGAGACAGCUUCCAACAGGCCGUGAAAUUAAAAGGCCAAGUGCUGUCUGUCAUGUUCCGGUUCCGGUCUAAGAACCAAGAAUGG,0.162
UUUUUUCAGUUUAUAUUAAUCUACUGUAUCAAUAAAAUUCUGUAAUUUGAAUGGGCUUUUAACCGUCCCGAAUGUUAUUGUGUAUAGAUAUUACUUCUUGAACAUUAUGUUCAGAAAUGC,1.97
UCCAGCGCAGAGCCCCGUCCUGAUUGAUCGCAUCGCGGGGCUCAGAUGACUGUAAAAUGAACCGAUGAAAUUCUUGCUUCUCGAAGAUUUUCUUGGGCAUCUCCCGGAAAGUGCGUUUUA,0.174
UUACGUGUUGGUGCUGAUAAUCAUGUGCUACCCUUGGACUGUGUUACUCUUCAGACAUUUUCCGCUAAGUGUUUGGGACCUUUUGAUGAAUGGGAAAGCAGACUUAGGGUUGCAAAAGAA,0.212
UUCGAUGUGAGAAUUGAACGAGAUGCACAAGAAAUGGCUGAUAGUUUAGGAGUUAGAAUUUUCCGUGCAGAAAUUAUUUAUCAUUUAUUUGAUGCCUUUACAAAAUAUAGACAAGACUAC,12.3

# Set 5
# Target: ABI1, truncated, D143A, DHFR fusion (Arabidopsis thaliana)
# Technique: DHFR PCA, deep sequencing
# Matrix: yeast
# Setting: methotrexate growth selection, single substitutions
# With: (+)-ABA 0.0091 µM
# Relative to: wild-type fitted maximum
# Reading: higher = stronger binding
# Parent: PYL1, truncated, DHFR fusion (Arabidopsis thaliana); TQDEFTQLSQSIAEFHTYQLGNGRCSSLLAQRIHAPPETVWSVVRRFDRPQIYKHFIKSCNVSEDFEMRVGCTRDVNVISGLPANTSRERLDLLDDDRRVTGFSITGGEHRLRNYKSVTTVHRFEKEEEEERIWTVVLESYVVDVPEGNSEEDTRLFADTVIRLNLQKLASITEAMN; partner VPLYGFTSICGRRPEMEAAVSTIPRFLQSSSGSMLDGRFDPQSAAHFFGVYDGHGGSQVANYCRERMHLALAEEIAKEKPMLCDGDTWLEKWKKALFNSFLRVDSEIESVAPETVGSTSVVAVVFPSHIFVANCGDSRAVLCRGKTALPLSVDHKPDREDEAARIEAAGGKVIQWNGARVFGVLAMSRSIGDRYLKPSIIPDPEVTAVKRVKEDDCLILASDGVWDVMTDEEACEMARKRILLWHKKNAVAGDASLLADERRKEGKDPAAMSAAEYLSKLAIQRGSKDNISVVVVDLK
Substitution,relative binding score
E67C,11%
R32F,11.5%
S117F,-10.6%
A13M,11.9%
H122S,-4.54%
S9N,28.4%
T6M,46.1%
V137R,-0.887%
E64D,47.1%
T1A,22.4%
T120S,68.7%
D48W,1.44%
N22A,47.2%

# Mixed results
Sequence,target,assay,test system,scale,endpoint,result
SFEPRNLLSLFED,human cyclin E1,"cyclin docking binding, deep mutational scanning","peptide, yeast cyclin E1-Cln2 system",direction not given,"score relative, wild type, peptide",0

# Repeated from above (set 4):
Strand,bound/input enrichment [ratio]
UUCGAUGUGAGAAUUGAACGAGAUGCACAAGAAAUGGCUGAUAGUUUAGGAGUUAGAAUUUUCCGUGCAGAAAUUAUUUAUCAUUUAUUUGAUGCCUUUACAAAAUAUAGACAAGACUAC,12.3
UCCAGCGCAGAGCCCCGUCCUGAUUGAUCGCAUCGCGGGGCUCAGAUGACUGUAAAAUGAACCGAUGAAAUUCUUGCUUCUCGAAGAUUUUCUUGGGCAUCUCCCGGAAAGUGCGUUUUA,0.174
GUAGAAUUCUGUCAUCCUGAAGACCAGCAGCUUCUAAGAGACAGCUUCCAACAGGCCGUGAAAUUAAAAGGCCAAGUGCUGUCUGUCAUGUUCCGGUUCCGGUCUAAGAACCAAGAAUGG,0.162
UUUUUUCAGUUUAUAUUAAUCUACUGUAUCAAUAAAAUUCUGUAAUUUGAAUGGGCUUUUAACCGUCCCGAAUGUUAUUGUGUAUAGAUAUUACUUCUUGAACAUUAUGUUCAGAAAUGC,1.97
UUACGUGUUGGUGCUGAUAAUCAUGUGCUACCCUUGGACUGUGUUACUCUUCAGACAUUUUCCGCUAAGUGUUUGGGACCUUUUGAUGAAUGGGAAAGCAGACUUAGGGUUGCAAAAGAA,0.212
